# Published values collected from several papers.
# Every numbered part comes from another study and shows a few of its results, in no order.

# Sample 1
# Target: Prothrombin, mature alpha-thrombin (F2, Homo sapiens, UniProt P00734)
# Method: aptamer microarray, sandwich
# Molecule type: DNA with 2'F-ANA
# Medium: in vitro
# Concentration: 200 nM
# Setting: whole 15-mer aptamer, many near background
# Added: Cy3 exosite-II aptamer, 400 nM
# Direction: higher = stronger binding
# Strand: GGTTGGTGTGGTTGG
Modification,mean fluorescence intensity [a.u.]
2'F-ANA at 7 8 12,1030
2'F-ANA at 1 3 4 7 9 11 15,169
2'F-ANA at 1 2 3 4 5 6 7 8 9 12,139
2'F-ANA at 3 4 5 6 7 11 12 14,51
2'F-ANA at 1 2 3 5 6 10,65.9
2'F-ANA at 2 6 7 8 9 10 11 12 14,84.3
2'F-ANA at 1 3 4 6 8 9 10 12 13 14 15,52.2
2'F-ANA at 1 2 3 5 7 8 9 10 12 13 14,49.5
2'F-ANA at 1 2 6 7,164
2'F-ANA at 1 2 4 5 6 7 9 10 11 12 13,46.7
2'F-ANA at 1 3 4 6 15,189
2'F-ANA at 1 2 3 5 7 8 12 13 14,47.2
2'F-ANA at 1 8 13,168
2'F-ANA at 1 7 10 11 12,79.4
2'F-ANA at 1 2 3 5 9 13 14,41.7
2'F-ANA at 1 2 5 6 10 11 15,49.8
2'F-ANA at 1 3 5 6 9 10 11 12 13 14 15,47.2

# Sample 2
# Target: RNA binding protein fox-1 homolog 2, RRM domain, GST-SBP tag (RBFOX2, Homo sapiens, UniProt O43251-10, residues 100-194)
# Method: RNA Bind-n-Seq
# Molecule type: RNA
# Medium: in vitro
# Concentration: 365 nM
# Setting: natural RNA segment, single round, ends assumed
# Relative to: no-protein control
# Direction: higher = stronger binding
# All sequences stand within: GGGAGUUCUACAGUCCGACGAUC … UGGAAUUCUCGGGUGCCAA
# Construct (chain): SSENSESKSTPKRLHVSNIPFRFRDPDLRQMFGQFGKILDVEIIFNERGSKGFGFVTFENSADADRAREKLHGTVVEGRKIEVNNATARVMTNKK
Strand,RBNS enrichment (R)
AAGCUUUUUUUUCUAGAUUUGACAUUUUUCUGUAUCAUUUUACUGUAUUUUUGCAUGGUUCCUUGUAUUGCAUUUCUUUGCACAUAUUAUGGGCUUGUGACCCUAAACUU,22.2
CUCCCCUUCCCCUUUCCUGCCCCAAGGCAGAUCCACAUCACCGAAGCUCCCUAGAGGGGCAAAAGAUGGAGUGAGCCACAGGAAGUUUGGGGCGUGGUGAGUUGGAAUGA,0.279
AAUGACUUACUGUGGAUAACAAAGAUAUCUUUUCUUUAGAGAACUGAAAAGAGAGGAAAGAAUAUAACGUGAAAUGCUAGAUUUGACCUCCUCCCUGUUAUUUCCAAGUA,0.371
UUGGAUUUGACCCCUUGGCUCUCAAGUGUCCCCUUAGAUCUAGAACUGCUCCUUGGUGGCCAUUAGAUCGAGUCAGUUUUGAUCUGCAUCACUUAGUUAUUGGGAAUUUC,0.45
GCCCCCCAAGGGGGUCCCCAGCAACCAGGCCUGGCCUCCUGGUGUCUGCGGUCACAGUGGCCCCUGGGCAGGGGCACCCAGGCUGACCCUGAGGUGCUGCUGCUGGGUCU,0.262
UGGACGUGUGGGCCACUUAAGCCCUCCCCACCCCCAUCCUAUUCCUGAAUAAAACCAGGAUAAUGGAGAGUUGUCUUUUCUGACAGUUUUAAUAAGCACUUCCCUAUCUG,0.338
GGAUCUCUCCAUGGGACUCUUUAACCAGGCUAGAACAGCUGUCUGCCAAAGAUACAAGAAUAUGCAAAGUCCCUCCUCCUAACCCUCCUUCCCUCUAAGUCGGUGGCUUG,0.452
ACACUACCCGAGAUGUCCAGACGUGCUUGGUAGGAGGCUACUCCCUAGGUGCUGCCUUUCUAAGUUCUGACGAGGAGCAGCCCUCAGUGGCUUGUGUACAGAUUGCUCUA,0.568

# Sample 3
# Target: Hepatocyte nuclear factor 3-alpha (Foxa1, Mus musculus, UniProt P35582, residues 1-468, full length assumed)
# Method: EMSA with sequencing
# Molecule type: double-stranded DNA, one strand shown
# Medium: in vitro
# Concentration: 10 and 20 nM
# Setting: whole designed probe, mean of two concentrations, ends assumed
# Relative to: negative control set to 0
# Direction: higher = stronger binding
# All sequences stand within: GTGAGCGGTGCCCATTGATGGGGAAC … TTTCACTGGGATCGTGGGGAC
# Target sequence (chain): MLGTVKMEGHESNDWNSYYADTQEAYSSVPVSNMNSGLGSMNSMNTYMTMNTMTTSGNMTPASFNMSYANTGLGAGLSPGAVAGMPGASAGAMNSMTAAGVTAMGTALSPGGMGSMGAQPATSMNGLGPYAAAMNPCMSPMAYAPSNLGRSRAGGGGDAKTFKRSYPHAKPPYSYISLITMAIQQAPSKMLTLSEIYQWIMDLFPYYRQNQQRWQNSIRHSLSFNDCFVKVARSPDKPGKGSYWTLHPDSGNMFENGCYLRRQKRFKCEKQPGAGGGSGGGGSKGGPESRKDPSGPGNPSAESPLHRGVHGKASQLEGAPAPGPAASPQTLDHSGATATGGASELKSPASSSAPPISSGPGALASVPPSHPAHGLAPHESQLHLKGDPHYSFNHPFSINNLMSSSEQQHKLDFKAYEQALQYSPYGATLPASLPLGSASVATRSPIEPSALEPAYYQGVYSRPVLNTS
Strand,normalised bound fraction [ratio]
CTCATTCCTTGCTTCCGCCAATAATCTGACTAGTAAAGAAGTCACTGCATGCCACAAATTGTCAGTGCTGACTTCCTCAACAAGGAAGTATAAGTAAATAAATATTAATATAGAGTGACTCAGTATGCAAATTCCATCTTGAGAATACCAACTCCTGATGCCAACTGATTGTCAGTCATGGCTACAACAGGAG,0.416
CCACTTTCATATGCTTCTGTAAAACCATCAAGCTGAATCGAATTCTCTTCAGGTATTCTTATCTCCCCGTAACTTGCCTTTGGTTCAGTCTCCATGTTTACATTCCCTTTATTTACAGGACTCCGCCTTTTATCTTTCTTTTGAGCTAAAAAAAGCAACCTGGCTGGAGGTAATTATACTGAGAAATTCTTTA,0.319
CGCATTAGCAGGGAAAGAAAAGGTACTGGCATGTACTGAACCCCATTCACCAGGCACTTTGTCAGGTCCTTCTTACAGGGGATTGCATCAGAGTAAACAAGGGACCAGAATCAAACTACTAACTCAACCTACTGATATTCAAAGTAAATATTGATTACGGATATAGAAAGTCATTATTCCATATAGTATATTA,0.438
CTCCTACTGATTGCCATATTTCTTTCACAGGATAACATAAGATTGGGTCAGCAGAATGGTGTTAACAAGATTATTTTGAGTGACTCACTCACAGCAATCTATGGTTGAGTTCAGGACTCTGGGCTGCCCAATGGTCCACTGCCAACTCTTAGGTTTAGACTTGGTGTGCAAGCCTGGTGTGCACTGGCTTTCC,-0.0681
AGCGCAGCCTAGAGGAGATAGGTGATGCCTGAAGCCATGAGAAGGGGTGTTATCTCTGCAGGAAGAAGAATTGCAACACTCCTCCCAGCTGAGCAAACAGTCTGGGCTGGGATGTGAGTGGTATCACACTCTGCACTCACTTCCTCCTTCAGTGGTCATTTGAGAGTTCACTGGGGCTGACCTACCCCATTGG,0.191

# Sample 4
# Target: Histone acetyltransferase KAT6A, winged helix 1, GST fusion (KAT6A, Homo sapiens, UniProt Q92794, residues 1-85)
# Method: protein binding microarray
# Molecule type: double-stranded DNA, one strand shown
# Medium: in vitro
# Concentration: not given
# Setting: 8-mer, flanks averaged, mean of 2 arrays, mostly near background
# Relative to: not given
# Direction: higher = stronger binding
# Construct (chain): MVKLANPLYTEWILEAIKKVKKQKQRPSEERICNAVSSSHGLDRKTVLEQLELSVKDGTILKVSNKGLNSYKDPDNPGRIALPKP
Strand,E-score
ACTGCGCG,0.385
GGGCACTA,0.144
GTCCGGCA,0.144
ATATACTC,-0.253
ATTCGGAC,0.0868
ACGCTCAA,0.0359
ACTCAGCA,-0.136
CTGGCAGA,-0.24
GCTATGCA,-0.0568
CGCCGAGA,0.309
GTACCCCA,-0.162
AGTACGGC,0.398

# Single results of other studies
Molecule,target,test,system,setting,how to read,quantity,value
"PhoQ, residues 284 288 289 292 302 303 TTCLQL","PhoP, residues 12 14 15 18 19 LHATL (Escherichia coli, UniProt P23836)","Sort-seq, refers to: YFP reporter",E. coli,"PhoQ-PhoP variant library, added: 10 µM Mg2+","relative to: high Mg2+ state, higher = stronger signaling",fold induction,1.93

# A few entries again (sample 2):
Strand,RBNS enrichment (R)
AAGCUUUUUUUUCUAGAUUUGACAUUUUUCUGUAUCAUUUUACUGUAUUUUUGCAUGGUUCCUUGUAUUGCAUUUCUUUGCACAUAUUAUGGGCUUGUGACCCUAAACUU,22.2
CUCCCCUUCCCCUUUCCUGCCCCAAGGCAGAUCCACAUCACCGAAGCUCCCUAGAGGGGCAAAAGAUGGAGUGAGCCACAGGAAGUUUGGGGCGUGGUGAGUUGGAAUGA,0.279
AAUGACUUACUGUGGAUAACAAAGAUAUCUUUUCUUUAGAGAACUGAAAAGAGAGGAAAGAAUAUAACGUGAAAUGCUAGAUUUGACCUCCUCCCUGUUAUUUCCAAGUA,0.371
UUGGAUUUGACCCCUUGGCUCUCAAGUGUCCCCUUAGAUCUAGAACUGCUCCUUGGUGGCCAUUAGAUCGAGUCAGUUUUGAUCUGCAUCACUUAGUUAUUGGGAAUUUC,0.45
GCCCCCCAAGGGGGUCCCCAGCAACCAGGCCUGGCCUCCUGGUGUCUGCGGUCACAGUGGCCCCUGGGCAGGGGCACCCAGGCUGACCCUGAGGUGCUGCUGCUGGGUCU,0.262
